# Measured values from different studies.
# Numbered parts are unrelated; each lists some results of a single study.

# Sample 1
# Target: Sal-like protein 4, full length isoform B (SALL4, Homo sapiens, UniProt Q9UJQ4-2, residues 1-616)
# Technique: universal PBM
# Form: double-stranded DNA, one strand shown
# Matrix: in vitro
# Tested at: not given
# Setting: 8-mer, flanks averaged, mean of replicates
# Direction: higher = stronger binding
# Residues (chain): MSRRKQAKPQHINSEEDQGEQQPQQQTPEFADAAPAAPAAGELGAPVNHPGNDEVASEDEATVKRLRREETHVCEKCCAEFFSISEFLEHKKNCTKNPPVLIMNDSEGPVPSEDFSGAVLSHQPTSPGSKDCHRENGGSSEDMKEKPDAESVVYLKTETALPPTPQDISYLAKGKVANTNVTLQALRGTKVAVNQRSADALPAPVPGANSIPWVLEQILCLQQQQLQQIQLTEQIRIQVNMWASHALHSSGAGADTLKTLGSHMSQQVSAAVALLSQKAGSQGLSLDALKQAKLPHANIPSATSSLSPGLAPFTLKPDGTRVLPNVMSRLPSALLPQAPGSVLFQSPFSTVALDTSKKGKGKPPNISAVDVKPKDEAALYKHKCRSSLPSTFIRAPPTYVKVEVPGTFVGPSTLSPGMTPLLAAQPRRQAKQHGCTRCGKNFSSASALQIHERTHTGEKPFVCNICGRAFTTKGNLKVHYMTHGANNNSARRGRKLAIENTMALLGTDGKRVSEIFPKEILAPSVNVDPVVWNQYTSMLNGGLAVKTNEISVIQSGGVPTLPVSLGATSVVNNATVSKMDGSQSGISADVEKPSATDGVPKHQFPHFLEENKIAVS
Oligonucleotide,E-score
CAGATACA,0.211
CCACTTAA,0.117
AAGTTAGT,0.12
CTGGAGGA,-0.0578
ACAGCAGG,-0.073
CATCATCG,0.115

# Sample 2
# Target: RNA binding protein fox-1 homolog 2, RRM domain, GST-SBP tag (RBFOX2, Homo sapiens, UniProt O43251-10, residues 100-194)
# Technique: RNA Bind-n-Seq
# Form: RNA
# Matrix: in vitro
# Tested at: 365 nM
# Setting: natural RNA segment, single round, ends assumed
# Relative to: no-protein control
# Direction: higher = stronger binding
# Residues (chain): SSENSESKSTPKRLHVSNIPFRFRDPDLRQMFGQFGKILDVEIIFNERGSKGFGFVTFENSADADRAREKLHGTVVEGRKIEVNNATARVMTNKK
Oligonucleotide,RBNS enrichment (R)
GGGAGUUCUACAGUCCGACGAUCUCAUUGUCACAGAAAAACCAACUAUGAUUUAUGGUUGUGUUUUCAGAAUUCAACAUUAAAGAUUAAUGUUUAUUUAAACGAACACAUUCCUGCAUUCAGGAUGUGAGGCCUGGAAUUCUCGGGUGCCAA,0.291
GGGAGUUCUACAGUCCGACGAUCAGGUUCCCAGGGUGUGGAUGCCAGCCUCCACCCAUGCACCUGGGUACUGGGGCACUGUUACCUCCAGAAGGCACUACUUCUAUCGUAGGGCGAGUCUAAUUGUUAGACAUUGGAAUUCUCGGGUGCCAA,0.417
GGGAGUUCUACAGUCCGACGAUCACAAAUCGGCUUCCUCUCCCCACCCUCCUGCCACUCUAAGUAUUGAAUGUACUUUGUAUAAUUUUAGUGGAAUUAUUGUUAUUAAAGAGAAUAAAAUUUUUACAAUCAUAUGGAAUUCUCGGGUGCCAA,0.403
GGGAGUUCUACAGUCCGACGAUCGCCCUGCCAUCAGCUUUUGGGGCCUCAGCAAGGCCUCUCUUUCUCCCCGUUGGUGAUGAAAGGCCUGAAUAUCUCCCAUCCCAGCUGGCCCCACCUCAGCCCCAGCCCUCUGGAAUUCUCGGGUGCCAA,0.347
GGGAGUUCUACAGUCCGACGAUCCCUUCUGAAAAGAAGCCCAGGGGAUGGGGCCUUCAAGGUGCCGGUUUGGAGUUCAAAUCCUGCUCCUGCAGAGGGGACCUGGGGGUCCAGGCUGGGAGAUGGGGGAACCUUGGAAUUCUCGGGUGCCAA,0.314
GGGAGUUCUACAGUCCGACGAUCUGGUUACUUAUUAUCUAUUGUUUUAUACUUUCUAUGUUCAUUUCAAAUAAUGUUAAUGUUAUUCAAUCAUUUUCUGAAUUGUUAACUCUUAUUCUUUGGUUUAAAUACUGUGGAAUUCUCGGGUGCCAA,0.423
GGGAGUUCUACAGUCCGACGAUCCAUUUUGUUGUGUUUUUUGAGACAGGGUCUUGCUCUGUCGCCCAGGUUGUAAUGCAGUGGCGCAAUCUCAGCUCACUGCAACCUCUCUCUCCCGGGUUCAAGUGAUUCUCUGGAAUUCUCGGGUGCCAA,0.348

# Sample 3
# Target: Prothrombin, mature alpha-thrombin (F2, Homo sapiens, UniProt P00734)
# Technique: aptamer microarray, sandwich
# Form: DNA with 2'F-ANA
# Matrix: in vitro
# Tested at: 200 nM
# Setting: whole 15-mer aptamer, many near background
# Added: Cy3 exosite-II aptamer, 400 nM
# Direction: higher = stronger binding
Oligonucleotide,mean fluorescence intensity [a.u.]
GGTTGGTGTGGTTGG (2'F-ANA at 1 11 14),73
GGTTGGTGTGGTTGG (2'F-ANA at 1 6 9 11 12 13 15),192
GGTTGGTGTGGTTGG (2'F-ANA at 5 6 8 9 11 12 15),119
GGTTGGTGTGGTTGG (2'F-ANA at 2 6 7 8 9 15),403

# Mixed results
Molecule,target,test,test system,setting,scale,quantity,result
"PhoQ, residues 284 288 289 292 302 303 ASTSDA","PhoP, residues 12 14 15 18 19 SQCLL (Escherichia coli, UniProt P23836)","Sort-seq, refers to: YFP reporter",E. coli,"PhoQ-PhoP variant library, added: 10 µM Mg2+","relative to: high Mg2+ state, higher = stronger signaling",fold induction,12.6
